# Results from different studies.
# Parts stem from different laboratories: compare values within a part only.

# Set 1
# Target: RNA binding protein fox-1 homolog 2, RRM domain, GST-SBP tag (RBFOX2, Homo sapiens, UniProt O43251-10, residues 100-194)
# Method: RNA Bind-n-Seq
# Form: RNA
# Matrix: in vitro
# Concentration: 365 nM
# Notes: natural RNA segment, single round, ends assumed
# Baseline: no-protein control
# Reading: higher = stronger binding
Sequence,RBNS enrichment (R)
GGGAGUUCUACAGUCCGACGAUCAGAACAAAAUAAAAGCUCGGCAUUGUAAUUUUUUUAAUGGACAAGUCUUAUGGAUACGAAGGGUACAUUUUUCAUAAUGAUUCCUUUAUAUUUUCACUUUGUGUCAUUGCUGGAAUUCUCGGGUGCCAA,0.54
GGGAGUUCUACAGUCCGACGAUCCUCUGAGGUUGCUAGUGACAUUUGAAACAGUCCUGUGUGGUCACCAGAAAAUAAGCCAUUCCUCAUAUCAGUGGGAUAAACUCCUUGUACCUCUUGCUGUGUUUGGAUCCUGGAAUUCUCGGGUGCCAA,0.414
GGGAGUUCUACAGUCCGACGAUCUAGUCCCAAGCACAUAAACUAGGAAGAGAAUGUAUUUGUAGGAGCGCUACCACCUGUUUUCAAGAGAACAUAGAACUCCAACGUAACCGUCAUUUCAAAGAUUUACUGUAUGGAAUUCUCGGGUGCCAA,0.543
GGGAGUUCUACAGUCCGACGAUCAUUGGUGGGCAGGGGGUUUGCUUAUGAGUUUUCUCUGGAAACCGAUUUUACUCCUGGAUGUAUUGAAUGCCCCUUGAGCUUUAUGAGAUACGAGUCCACAUGGAUAAAAUUGGAAUUCUCGGGUGCCAA,0.628
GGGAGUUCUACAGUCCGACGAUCUUUUCAGUUCUCAUCCUCUCCAUCCCAAUCCAGUAUAUCAAUCAACUCUAACUCGGAGACGUCUAGCUGGCAAUGUUUCUAAAACUUUCACUGGAUUUCUUUAGACAUUGUGGAAUUCUCGGGUGCCAA,0.428
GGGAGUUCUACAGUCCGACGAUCGCCCCCAAAGCACAGAAUGGAUUCAAUUUGUGGCCUGGGUUCAGCUCUGCCUCUGCAGUUGGCAGGUGUCCCAGAUUUGCUGUUGGACAGGGACCUUCUGCACUCCAUCCUGGAAUUCUCGGGUGCCAA,0.418
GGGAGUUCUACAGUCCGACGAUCCCCCCGCACCAUUGGUUGUGUAUCACUUUCACUUUACACUUGCAUGUUCUACUUGUCAGGGCUGGAACUAUUGUAUAGAAGAUAAUAUGAUUGUGACUUCUAGUUCUUUUUGGAAUUCUCGGGUGCCAA,4.59
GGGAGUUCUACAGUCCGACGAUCAAAAAAUAAAAUAAUGUGAAGCAAAACCAACUAAAAAGUGAUUCUUGCACAUGAACUGUCACAUGUUUAAAAAUGUGUUUUUUAGAGAGCCUCAGUCUUACUGAUUUCAAUGGAAUUCUCGGGUGCCAA,0.401

# Set 2
# Target: Sal-like protein 4, full length isoform B (SALL4, Homo sapiens, UniProt Q9UJQ4-2, residues 1-616)
# Method: universal PBM
# Form: double-stranded DNA, one strand shown
# Matrix: in vitro
# Concentration: not given
# Notes: 8-mer, flanks averaged, mean of replicates
# Reading: higher = stronger binding
Sequence,E-score
GATTTCCC,-0.0711
AAAGCCGC,-0.185
TATGACCA,0.202
AGGAGATA,0.0139
GGCACACA,-0.134
CAGTCCAC,-0.112
AAGCGGGC,-0.283
ATAGGCAA,0.175
ACGATCTG,-0.172
GCTTATTA,0.324
CGGAAGGC,-0.239
GAACACTA,0.156
GAGGAAGC,-0.242
ACGTGATC,-0.0049
CGTCGCCC,-0.327
GGTCCTTA,-0.0327
GAGGCCCA,-0.271
CGCGCGTA,-0.244
GGGGACGA,-0.197
AGGCGGCA,-0.254
CGATCTAC,-0.0208
GACCTCGC,-0.245

# Set 3
# Target: Protein C-ets-1 (ETS1, Homo sapiens, UniProt P14921, residues 1-441, K379A, full length assumed)
# Method: protein-binding microarray
# Form: double-stranded DNA, one strand shown
# Matrix: in vitro
# Concentration: not given
# Notes: k-mer, scored over probes, only values ≥0.25
# Reading: higher = stronger binding
# Construct (chain): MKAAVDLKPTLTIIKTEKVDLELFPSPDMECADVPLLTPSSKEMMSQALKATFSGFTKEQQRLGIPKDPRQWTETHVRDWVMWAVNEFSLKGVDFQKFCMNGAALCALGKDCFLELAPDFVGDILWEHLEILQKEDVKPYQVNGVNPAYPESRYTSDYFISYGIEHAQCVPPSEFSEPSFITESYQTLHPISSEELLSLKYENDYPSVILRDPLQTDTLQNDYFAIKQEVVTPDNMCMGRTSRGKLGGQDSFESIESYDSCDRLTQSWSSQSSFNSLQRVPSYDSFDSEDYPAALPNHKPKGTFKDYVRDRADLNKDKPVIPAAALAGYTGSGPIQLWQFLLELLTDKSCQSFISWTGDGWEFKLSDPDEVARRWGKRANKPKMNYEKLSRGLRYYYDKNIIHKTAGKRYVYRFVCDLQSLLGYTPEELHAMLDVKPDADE
Sequence,E-score
CACCGCCC,0.273
AGCCCCGG,0.353
AAAACCGG,0.319
ACGTCATG,0.252
GGCCGACA,0.304
CGGCGGTA,0.301
TCGAACAA,0.263
ATTTACCG,0.327
AGCACCGG,0.336
GAGAACCA,0.252
ATAGCGAC,0.266
CCCCCGGA,0.366
CTCCGGAA,0.279
GACGGAAA,0.251
ACAGACCG,0.294
AATATGAA,0.257
GTTCGAAC,0.254
ACACCGCC,0.277
CGACATTA,0.272

# Set 4
# Target: Fragile X messenger ribonucleoprotein 1, C-terminal low-complexity region (Fmr1, Mus musculus, UniProt P35922)
# Method: RNA Bind-n-Seq
# Form: RNA
# Matrix: in vitro
# Concentration: 200 nM
# Notes: whole 134-nt RNA, ends assumed
# Together with: 150 mM LiCl
# Baseline: input library
# Reading: higher = stronger binding
# Library: 7-deaza-guanosine replaces G
Sequence,log2 enrichment
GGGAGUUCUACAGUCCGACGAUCAAGUCCUGUGCUACACAUCGUAUGUACCGAAUCGGGGUGGGGUUUGGGGUUUGGGGAAAGUAUUAUGUUACGCCGUUCGGAUCUGCACUUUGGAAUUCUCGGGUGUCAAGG,-1.36
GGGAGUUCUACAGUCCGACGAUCUUUCACUUCCAGCCAGCUGUGAAGAAGGUGAGCUUGCCUUCCAUCUUCCCCCCUAUCCGCCGCGUAUCUCCGUCGUCUGCAAGCGCGUGAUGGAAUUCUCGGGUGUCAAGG,1.05
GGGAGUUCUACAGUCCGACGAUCUGGCCCUGGUGGCUUGCGGGGAGGAAGAGGUGGCCUCAUGGAUCGUGGUGGUCCCGGUGGAAUGUUCAGAGGUGGCCGUGGUGGAGACAGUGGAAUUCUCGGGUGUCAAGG,0.225
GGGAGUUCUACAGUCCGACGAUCUAACUUUAGCGGAGGAUCUGAUGGAUAUGGCAGUGGACGUGGAUUUGGGGAUGGCUAUAAUGGGUAUGGAGGAGGACCUGGAGGUGGCAAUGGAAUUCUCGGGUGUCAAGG,0.176
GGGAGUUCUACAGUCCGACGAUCGUCCUGUGCUACACAUCGUAUGUACCGAAUCGGGGUUUGGGGUUUUUUUGGGGAGGGGAAAGUAUUAUGUUACGCCGUUCGGAUCUGCACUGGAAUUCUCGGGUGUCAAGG,0.455
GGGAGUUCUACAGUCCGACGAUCUGACUUUAGAGGAGGAUCUGAUGGAUAUGGCAGUGGACGUGGAUUUGGGGAUGGCUAUAAUGGGUAUGGAGGAGGACCUGGAGGUGGCAAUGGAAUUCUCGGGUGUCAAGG,0.495
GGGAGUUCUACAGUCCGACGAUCACCAUGCAGGUGGGCAUCUUUGGGAAGUGGGGCAAGGGGGGGAUAGGGAGGGGGGUAACACUUUGGGAACAGGUGGGCCCAGGUCGUUUCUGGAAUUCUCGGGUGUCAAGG,1.68
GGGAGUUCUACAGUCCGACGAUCCUCAAGUCCUGUGCUACACAUCGUAUGUACCGAAUCGGUGGAAAAAGGUUUGGAAAGUAUUAUGUUACGCCGUUCGGAUCUGCACUUCCAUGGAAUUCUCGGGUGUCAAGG,-0.475

# Set 5
# Target: Histone acetyltransferase KAT6A, winged helix 2, GST fusion (KAT6A, Homo sapiens, UniProt Q92794, residues 85-181)
# Method: protein binding microarray
# Form: double-stranded DNA, one strand shown
# Matrix: in vitro
# Concentration: not given
# Notes: 8-mer, flanks averaged, mean of 2 arrays, mostly near background
# Baseline: not given
# Reading: higher = stronger binding
# Construct (chain): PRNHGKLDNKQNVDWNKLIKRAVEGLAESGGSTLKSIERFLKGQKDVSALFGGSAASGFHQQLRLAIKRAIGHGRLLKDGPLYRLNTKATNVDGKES
Sequence,E-score
CCCCCGCC,0.0917
CGGGTTCC,0.21
AGTCTCCC,-0.117
ACCATTCC,-0.0676
ACGGCCGT,0.0372
GCCTTCGC,0.214
TAAAAATA,0.217
GGGAGTAC,-0.111
GGAGTAAA,0.0901
TCGAACAA,0.126
CTGTAATC,0.0289
ACCATCCT,-0.12
CTTCCGCC,0.163
GTCGAGCA,-0.0117
AAGTTCAT,0.0353
CTCAAGCA,-0.00249
CGGGAGCC,0.0641
GAGGACAC,-0.0344
ACTCAGAT,-0.0412
